Experimental data of several laboratories.
Protocols differ between the studies behind these lines. Several values in a cell are separate wells, animals, samples, runs or records. Numbers after ± are the reported error.
UniProt O75676, sequence (whole entry, looked up): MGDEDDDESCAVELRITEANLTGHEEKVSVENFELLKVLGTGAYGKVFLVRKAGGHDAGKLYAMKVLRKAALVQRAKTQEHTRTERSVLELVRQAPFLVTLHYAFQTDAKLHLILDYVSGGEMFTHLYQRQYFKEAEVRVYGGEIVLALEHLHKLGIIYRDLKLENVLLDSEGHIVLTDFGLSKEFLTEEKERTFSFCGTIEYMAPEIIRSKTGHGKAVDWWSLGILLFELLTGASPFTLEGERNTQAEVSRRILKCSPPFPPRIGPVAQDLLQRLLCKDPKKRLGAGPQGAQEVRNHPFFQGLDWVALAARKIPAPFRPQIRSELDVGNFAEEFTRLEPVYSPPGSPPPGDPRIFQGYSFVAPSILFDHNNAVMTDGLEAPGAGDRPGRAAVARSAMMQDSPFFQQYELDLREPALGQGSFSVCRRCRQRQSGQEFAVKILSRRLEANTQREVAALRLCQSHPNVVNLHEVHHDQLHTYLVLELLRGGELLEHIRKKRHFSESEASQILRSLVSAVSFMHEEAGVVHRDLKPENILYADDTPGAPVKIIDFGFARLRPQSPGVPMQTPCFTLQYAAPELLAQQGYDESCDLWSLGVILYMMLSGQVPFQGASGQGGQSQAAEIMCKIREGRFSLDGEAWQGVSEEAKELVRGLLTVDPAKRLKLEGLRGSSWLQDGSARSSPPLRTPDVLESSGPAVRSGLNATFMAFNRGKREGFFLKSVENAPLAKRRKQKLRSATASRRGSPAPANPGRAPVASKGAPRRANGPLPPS
UniProt O75582, sequence (whole entry, looked up): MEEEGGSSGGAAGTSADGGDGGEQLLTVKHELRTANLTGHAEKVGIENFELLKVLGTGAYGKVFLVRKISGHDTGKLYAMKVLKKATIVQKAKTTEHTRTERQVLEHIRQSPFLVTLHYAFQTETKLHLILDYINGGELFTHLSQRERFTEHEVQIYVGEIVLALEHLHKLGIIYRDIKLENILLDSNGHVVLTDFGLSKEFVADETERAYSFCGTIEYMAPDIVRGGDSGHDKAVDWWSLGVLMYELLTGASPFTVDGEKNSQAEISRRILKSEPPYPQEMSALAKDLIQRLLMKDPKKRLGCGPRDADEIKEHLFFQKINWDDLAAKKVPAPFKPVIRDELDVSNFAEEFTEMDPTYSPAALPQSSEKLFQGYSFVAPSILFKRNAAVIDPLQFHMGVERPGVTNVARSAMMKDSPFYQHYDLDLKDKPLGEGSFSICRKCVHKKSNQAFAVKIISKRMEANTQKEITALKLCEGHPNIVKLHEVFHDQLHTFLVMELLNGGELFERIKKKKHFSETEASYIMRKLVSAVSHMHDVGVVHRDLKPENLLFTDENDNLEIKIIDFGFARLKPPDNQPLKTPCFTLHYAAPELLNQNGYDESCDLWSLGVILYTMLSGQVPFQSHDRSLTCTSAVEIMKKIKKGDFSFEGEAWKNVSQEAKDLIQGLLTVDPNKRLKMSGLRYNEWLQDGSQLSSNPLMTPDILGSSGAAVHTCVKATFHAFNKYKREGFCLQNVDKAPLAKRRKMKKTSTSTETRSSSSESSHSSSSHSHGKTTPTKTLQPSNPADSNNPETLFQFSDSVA

CS(C)(=O)=Nc1ccc(-c2ccc(-c3nc4cc(O[C@@H]5CO[C@H]6[C@@H]5OC[C@H]6O)[nH]c4cc3F)cc2)cc1 gave an inhibition of -15% (RPS6KA5 (Homo sapiens, UniProt O75582); enzyme activity, inhibitor; 10 µM).
C#CCN1C(=O)C(CC#C)(C(=O)OCC)Oc2ccccc21 (stereo not drawn) gave an inhibition of 0.46% (L02; cell growth or viability, CCK-8; 6.25 µM, 72 h).
CC(=O)NCSC[C@H](NC(=O)[C@@H]1CCCN1C(=O)[C@H](C)NC(=O)[C@@H](NC(=O)CNC(=O)[C@@H](NC(=O)[C@H](Cc1c[nH]c2ccccc12)NC(=O)[C@H](C)NC(=O)CNC(=O)[C@H](CO)NC(=O)[C@H](C)NC(=O)[C@@H]1CCCN1C(=O)[C@H](Cc1c[nH]c2ccccc12)NC(=O)[C@H](C)NC(=O)[C@H](C)NC(=O)[C@@H](N)Cc1ccc(O)cc1)[C@@H](C)O)[C@@H](C)O)C(=O)N[C@@H](CO)C(=O)N[C@@H](C)C(=O)NCC(=O)N[C@H](C(=O)NCCOCCOCCOCCOCCOCCOCCOCCOCCOCCOCCOCCOCCC(=O)N[C@@H](CS)C(N)=O)[C@@H](C)O gave a selectivity ratio of 25 ± 3.6 (H2073 lung adenocarcinoma; cell binding, phage binding, measured: output/input phage; 10 min, 37 °C; baseline: control phage).
For COc1ccccc1-c1n[nH]c2nc(N[C@H]3CC[C@H](NS(=O)(=O)CC(C)C)CC3)ncc12, the relative abundance was 0.64 (bead binding, competition bead pull-down, measured: LINJ.36.6910; Leishmania donovani extract; 10 µM; baseline: vehicle).
CC(C)(C)C(=O)OCOP(=O)(OCOC(=O)C(C)(C)C)C1CCCN(O)C1=O (stereo not drawn) has a CC50 of greater than 100 µM (IGROV-1).
COc1ccccc1-c1n[nH]c2nc(NC3CCN(C(=O)Cc4ccc(F)cc4F)CC3)ncc12 gave a relative abundance of 1.09 (bead binding, competition bead pull-down, measured: LINJ.27.1920; Leishmania donovani axenic amastigote extract; 10 µM; baseline: vehicle).
Under “organ-to-brain weight ratio”, O=C1NC2(CC2)COc2ncc(F)cc2[C@H]2COCCN2c2ccn3ncc1c3n2 is recorded as 18.8 ± 2.48% (Sprague-Dawley rat, male, thymus; oral, 10 mg/kg/day, 4 weeks dosing, end of recovery).
The selectivity ratio of CC(C)[C@H](NC(=O)[C@H](CCCNC(=N)N)NC(=O)[C@@H]1CCCN1C(=O)[C@@H](NC(=O)[C@H](C)NC(=O)[C@H](Cc1ccc(O)cc1)NC(=O)[C@H](CCC(N)=O)NC(=O)[C@H](CCCCN)NC(=O)[C@H](CCCNC(=N)N)NC(=O)[C@@H]1CCCN1C(=O)[C@H](CCC(=O)O)NC(=O)[C@@H](NC(=O)[C@H](C)N)[C@@H](C)O)[C@@H](C)O)C(=O)N[C@@H](Cc1ccccc1)C(=O)N[C@@H](Cc1c[nH]c2ccccc12)C(=O)N[C@H](C(=O)N[C@@H](CC(=O)O)C(=O)N[C@@H](C)C(=O)N1CCC[C@H]1C(=O)NCC(=O)NCCOCCOCCOCCOCCOCCOCCOCCOCCOCCOCCOCCOCCC(=O)N[C@@H](CS)C(N)=O)[C@@H](C)O is reported as 4.3 ± 1.7 (HCC1171 lung carcinoma; cell binding, phage binding, measured: output/input phage; 10 min, 37 °C; baseline: control phage).
With COc1ccccc1-c1ccncc1C(=O)Nc1nnc(OCc2ccc(Cl)cc2)s1 the colony survival was 25.8% (RPE-1 TP53-/- BRCA1-/-; 8 µM, average of 2 runs; baseline: untreated).
With Cc1cc(Oc2nc(N3CC[C@@H](c4ccncc4)C3)ncc2F)[nH]n1 the IC50 was 30.2 µM (HT-29; cell proliferation; colon cancer).
The selectivity ratio of CC(C)C[C@H](NC(=O)[C@H](CC(=O)O)NC(=O)CNC(=O)[C@@H](N)CCCNC(=N)N)C(=O)N[C@@H](C)C(=O)N[C@H](C(=O)N[C@@H](CC(C)C)C(=O)N[C@@H](CCCNC(=N)N)C(=O)N[C@@H](CCC(N)=O)C(=O)N[C@@H](CC(C)C)C(=O)N[C@@H](C)C(=O)N[C@@H](CCC(N)=O)C(=O)N[C@@H](CCC(=O)O)C(=O)N[C@@H](CC(=O)O)C(=O)NCC(=O)N[C@H](C(=O)N[C@H](C(=O)NCC(=O)N[C@H](C(=O)N[C@@H](CCCNC(=N)N)C(=O)NCCOCCOCCOCCOCCOCCOCCOCCOCCOCCOCCOCCOCCC(=O)N[C@@H](CS)C(N)=O)C(C)C)C(C)C)C(C)C)[C@@H](C)O is reported as 5.4 ± 1.3 (HCC1359 lung squamous carcinoma; cell binding, phage binding, measured: output/input phage; 10 min, 37 °C; baseline: control phage).
For C=CCN1C(=O)C(CC=C)(C(=O)OCC)Oc2cc(F)ccc21 (stereo not drawn), the inhibition was 0.92% (HaCaT; cell growth or viability, CCK-8; 100 µM, 72 h).
O=C(O)c1ccc(-c2nc(-c3ccccc3Cl)c3sccn23)cc1: “CD41-positive cell number” 5.43e+06 and 4.92e+06 (CD34+ hematopoietic stem cells; 10 µM, day 12, without TPO).
CCOC(=O)C1(Cc2ccccc2)Oc2cc(F)ccc2N(Cc2ccccc2)C1=O (stereo not drawn) has an inhibition of 0.1% (L02; cell growth or viability, CCK-8; 3.13 µM, 72 h).
The inhibition of CN(C)[C@H]1C[C@@]23CC[C@@]4(O2)C(=CC[C@]2(C)[C@@H](c5ccc6ccncc6c5)CC[C@H]24)C=C3[C@@H](O)[C@@H]1O is reported as 1.3% (Ribosomal protein S6 kinase alpha-4, N-terminal kinase domain (RPS6KA4, Homo sapiens, UniProt O75676); ATP probe labelling, inhibitor, KiNativ profiling; 1 µM).
